# Measured values pooled from the literature.
# Every numbered part comes from another study and shows a few of its results, in no order. Positions count from the first letter of the parent shown.

# Sample 1 — method: protein-binding microarray; form: double-stranded DNA, one strand shown; matrix: in vitro; tested at: not given; direction: higher = stronger binding
# Target: Max dimerization protein 1, bHLH-zipper, MAX partner unstated (MXD1, Homo sapiens, UniProt Q05195, residues 56-136)
# Notes: k-mer, scored over probes, only values ≥0.25
# Residues (chain): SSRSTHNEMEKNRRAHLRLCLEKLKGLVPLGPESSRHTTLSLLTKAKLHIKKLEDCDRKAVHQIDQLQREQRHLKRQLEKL
Strand,E-score
CACGAGAA,0.371
AACCCACG,0.375
CAAACACG,0.375
AGAAGGGG,0.276
ACGCGCGT,0.341
GAACGTGC,0.292
GTGGAAAC,0.267
AGCGTGGC,0.381
CGACATGC,0.409
CTCATGCC,0.326
AGATGGGG,0.287
ACCACGAT,0.334
CCCATGCC,0.348
CACCATGG,0.276
ACCACGAG,0.383

# Sample 2 — method: universal PBM; form: double-stranded DNA, one strand shown; matrix: in vitro; tested at: 600 nM; direction: higher = stronger binding
# Target: Sal-like protein 4, full length isoform A (SALL4, Homo sapiens, UniProt Q9UJQ4, residues 1-1053)
# Sequence of UniProt Q9UJQ4 (whole entry, looked up): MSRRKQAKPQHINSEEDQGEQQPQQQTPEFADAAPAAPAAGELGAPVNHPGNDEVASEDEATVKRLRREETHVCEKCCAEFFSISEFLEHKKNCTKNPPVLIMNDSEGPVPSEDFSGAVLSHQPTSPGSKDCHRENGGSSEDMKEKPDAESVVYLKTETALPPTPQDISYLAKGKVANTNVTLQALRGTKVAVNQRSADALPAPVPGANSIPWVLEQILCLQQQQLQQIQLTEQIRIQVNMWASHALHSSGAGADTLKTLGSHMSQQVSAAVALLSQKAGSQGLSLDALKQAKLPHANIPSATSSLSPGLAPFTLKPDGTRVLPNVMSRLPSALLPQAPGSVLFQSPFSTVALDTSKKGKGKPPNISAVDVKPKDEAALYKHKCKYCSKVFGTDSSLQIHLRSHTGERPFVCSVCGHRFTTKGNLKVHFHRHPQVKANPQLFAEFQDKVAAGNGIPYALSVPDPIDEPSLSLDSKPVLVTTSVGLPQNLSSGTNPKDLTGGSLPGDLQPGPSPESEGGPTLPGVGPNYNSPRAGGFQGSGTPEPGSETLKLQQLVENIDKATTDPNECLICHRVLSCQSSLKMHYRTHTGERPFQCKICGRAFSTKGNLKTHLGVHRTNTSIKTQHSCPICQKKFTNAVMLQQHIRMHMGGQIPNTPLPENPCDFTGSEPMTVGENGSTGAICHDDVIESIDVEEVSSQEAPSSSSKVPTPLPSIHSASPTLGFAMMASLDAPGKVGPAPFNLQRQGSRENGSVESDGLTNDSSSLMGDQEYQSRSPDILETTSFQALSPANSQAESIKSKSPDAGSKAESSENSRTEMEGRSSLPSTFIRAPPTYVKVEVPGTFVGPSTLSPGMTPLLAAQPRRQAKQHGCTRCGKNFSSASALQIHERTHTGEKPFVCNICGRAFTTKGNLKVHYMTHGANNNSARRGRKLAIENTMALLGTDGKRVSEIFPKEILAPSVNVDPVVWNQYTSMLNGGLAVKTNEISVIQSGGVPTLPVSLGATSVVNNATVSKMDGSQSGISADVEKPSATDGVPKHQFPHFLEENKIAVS
# Notes: 8-mer, flanks averaged, mean of replicates
Strand,E-score
GCGATGCA,-0.235
GCCGAGAC,-0.307
AAAGTCAC,0.0865
AATCCGCT,-0.0769
ACAGGCCT,-0.109
GGACATCC,-0.29
CGTCGTCC,-0.272
CGACACAG,-0.0817
CCGCGTGC,-0.313
GCGACCGC,-0.293
GAAATGTA,0.192
GAGCTACC,-0.082
ATTCCGTA,0.0824
ATTTAGTC,0.127
GAATGAAC,0.169
GGTACACA,0.00573
GATGGGCA,-0.125
TATAGGAA,0.292
ACACGCAC,-0.259
TCAATCCA,0.000395
AGACATTG,0.0119
GCGCACTA,-0.219
CGATTGCA,0.0675
AAGGTCTC,0.00713
TACATGTA,0.242

# Sample 3 — method: RNA Bind-n-Seq; form: RNA; matrix: in vitro; tested at: 365 nM; reference: no-protein control; direction: higher = stronger binding
# Target: RNA binding protein fox-1 homolog 2, RRM domain, GST-SBP tag (RBFOX2, Homo sapiens, UniProt O43251-10, residues 100-194)
# Notes: natural RNA segment, single round, ends assumed
# Constant ends, left off below: GGGAGUUCUACAGUCCGACGAUC … UGGAAUUCUCGGGUGCCAA
# Residues (chain): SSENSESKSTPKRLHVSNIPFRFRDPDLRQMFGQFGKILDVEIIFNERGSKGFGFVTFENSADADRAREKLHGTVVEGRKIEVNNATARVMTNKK
Strand,RBNS enrichment (R)
GCAGCCUGUCUAGUUUGUAGAUCCCCUUGGUUGCUGGAUAAAGGAUGAUAAUAAAGUGUCUUUCUCUAAACUUGCUUGUCUCCUCUGUUUUAGAAACAUGGGUGGGUAGC,0.392
UUGCAACUGAAAUAUGAUGGAUAUGCUUAAGUACAACUGAUGGCAUGAAAAAAAUCAAAUUUUUGAUUUAUUAUAAAUGAAUGUUGUCCCUGAACUUAGCUAAAUGGUGC,0.391
AUAGAUAGGCCCAGUGUCUUGGCAUUCUUGUAGAAUCUUCAGGUGGGAAUGUGUGAUGCCUUUUCAGGCAAUAGGAAAGUGCAUGAGGAGAGUUUUGAAUGUGCAUAUGC,19.2
CCUCUCCACCCCCCACAUCGGUCCUCUCAAAUACCCAAUGGGAUUCCAGCUUGAAGGAUUGCAUCCUGCAGGGAAUGAGCACACCUGCCAAGGACACGUGCGCCUGCCUU,1.63
GUGUUCCACGAAGGAGGCUCUUCUCAGUCUCUGGGCUCUCCUUUAGAGUUAAGGUCUUAAAAUGUAUUUUGUCCUAAAUAAACUGCGUUUGGUAAACCUUGGCUGGCAAG,0.32
CAGGGCAAAUGUGAAUUUUCUUUUGAUUUGGGAGAUUGUUCACAGGAAGUAGUCCUCCCCUCUCAUGUCCUCCUAUUGAUUGUUUACAAUAUUUGUACAUCUAUGCAAAA,0.54
UGUGCGUGCCAGCGAAGGCUGCUGUGGGCGUGUGUGUCAAGUGGGCCACGCGUGCAGGGUGUGUGUCCACGAGCGACGAUCGUGGUGGCCCCAGCGGCCUGGGCGUUGGC,1.13
UGUCUUACAGGAGUUUGCAGAGAAACCUUCCUUGGAGGGAAAGAAAUAUCAGGGAUUUUUGUUGAAUAUUUCAAAUUCAGCUUUAAGUGUAAGACUCAGCAGUGUUCAUG,0.441
CUGAGGCCAGAUGAUGCUAAAGCAGCUUGUGAGCCAAAUGAUCUGGGGUCUCCCCCAACAUUGUUGCUCUUUUAAACAAAUUGAAUUCUUUUUUCAAGGCUUAAAUUUUU,0.727
CUUGUAUCCUUAAUCCUCAGUAACAGAAUUAGUCACACAGGGGGGAACUGCCAGCAGGGUUGCUUAGGAAAGGAAAUGGACCUUCUCUUCUCUUCUCUUCUUUGAGACAG,0.442
UGAAUGGGCUGGGGGUGGGGUGGCCUUCUCCAGGCCUGAGUGUUUUUGUGUCCAGCUCAGUAUCUGCAACAAGAAGUUUCCCACUUGUGGAUGUUUAGUGCAGCCACAGA,0.663
UAUCGUUUUCUGGUGAUGUUGUGCUAACAAUAAGAAGUACACGGGUUUAUUUCUGUGGCCUGAGAAGGAAGGGACCUCCACGACAGGUGGGCUGGGUGCGAUCGCCGGCU,0.471

# Sample 4 — method: DHFR PCA, deep sequencing; matrix: yeast; together with: (+)-ABA 1.4 µM; reference: wild-type fitted maximum; direction: higher = stronger binding
# Target: ABI1, truncated, D143A, DHFR fusion (Arabidopsis thaliana)
# Notes: methotrexate growth selection, single substitutions
# Starting sequence: PYL1, truncated, DHFR fusion (Arabidopsis thaliana); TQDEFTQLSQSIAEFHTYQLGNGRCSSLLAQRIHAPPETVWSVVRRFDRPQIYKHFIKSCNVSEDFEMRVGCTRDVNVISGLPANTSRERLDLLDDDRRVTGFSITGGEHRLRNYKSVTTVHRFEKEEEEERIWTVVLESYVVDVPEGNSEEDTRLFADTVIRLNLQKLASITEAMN; partner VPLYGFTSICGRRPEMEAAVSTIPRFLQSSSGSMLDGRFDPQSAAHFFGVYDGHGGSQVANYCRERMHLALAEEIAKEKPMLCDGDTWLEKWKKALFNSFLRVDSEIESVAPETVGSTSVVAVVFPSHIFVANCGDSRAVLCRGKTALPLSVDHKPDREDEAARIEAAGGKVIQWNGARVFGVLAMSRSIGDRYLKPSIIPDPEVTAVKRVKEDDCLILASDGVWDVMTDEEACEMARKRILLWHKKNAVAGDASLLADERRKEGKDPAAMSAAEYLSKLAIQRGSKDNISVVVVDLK
Substitution,relative binding score
Q31E,0.518%
E109T,35.4%
H34G,33.8%
H16E,9.34%
F124N,10.4%
V40M,-1.93%
P36H,57.9%
V62Q,20.5%
E89L,-2.58%
L164R,57.2%
F5R,45.5%
I133R,39.4%
S26L,-7.81%
R163Q,43.5%
A35F,-33.4%

# Sample 5 — method: aptamer microarray, sandwich; form: DNA with 2'F-ANA; matrix: in vitro; tested at: 200 nM; together with: Cy3 exosite-II aptamer, 400 nM; direction: higher = stronger binding; strand: GGTTGGTGTGGTTGG
# Target: Prothrombin, mature alpha-thrombin (F2, Homo sapiens, UniProt P00734)
# Notes: whole 15-mer aptamer, many near background
Modification,mean fluorescence intensity [a.u.]
2'F-ANA at 1 6 8 9 10 14 15,49.5
2'F-ANA at 3 4 11 12 13 15,637
2'F-ANA at 1 2 3 5 6 7 8 10 12 13,49.3
2'F-ANA at 2 4 5 6 7 8 9 11 12 15,99.9
2'F-ANA at 6 8 9 11 14 15,142
2'F-ANA at 1 3 4 5 6,72.7
2'F-ANA at 2 4 7 13,256
2'F-ANA at 1 3 5 7 8 9 11 12 13,85.5
2'F-ANA at 1 5 6 14,44
2'F-ANA at 1 2 3 4 5 7 11 12,81.6
2'F-ANA at 1 2 3 6 7 8 11 12,382
2'F-ANA at 3 4 7 10 11 13 15,270
2'F-ANA at 2 3 7 8 13 14 15,465
2'F-ANA at 1 3 4 5 7 10 13 15,49.3
2'F-ANA at 1 2 3 6 7 8 9 10 14 15,55.3
2'F-ANA at 1 2 6 9 10 13 14,89.2
2'F-ANA at 1 2 3 4 6 8 9 10 12 13 14 15,56.8
2'F-ANA at 2 3 5 6 7 8 9 10 12 13 14 15,52.3
2'F-ANA at 1 2 4 5 7 8 9 12 13 14,45.7
2'F-ANA at 2 5 7 9 12,159
2'F-ANA at 5 6 7 9 10 13 14,46.2
2'F-ANA at 1 3 4 11 12 15,330
2'F-ANA at 2 3 4 9 11 15,531

# Sample 6 — method: protein binding microarray; form: double-stranded DNA, one strand shown; matrix: in vitro; tested at: not given; reference: not given; direction: higher = stronger binding
# Target: Histone acetyltransferase KAT6A, both winged helices, GST fusion (KAT6A, Homo sapiens, UniProt Q92794, residues 1-181)
# Notes: 8-mer, flanks averaged, mean of 2 arrays, mostly near background
# Target sequence (chain): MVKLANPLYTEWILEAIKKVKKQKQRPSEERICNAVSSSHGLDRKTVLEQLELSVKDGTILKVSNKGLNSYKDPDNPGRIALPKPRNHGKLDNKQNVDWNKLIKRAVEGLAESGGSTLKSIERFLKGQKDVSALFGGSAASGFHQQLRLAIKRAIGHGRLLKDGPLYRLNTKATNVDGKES
Strand,E-score
GTGAAAAA,0.00101
AGGGAGTC,-0.179
GATAAGGC,-0.069
AGGAAGGA,-0.277
ACAGCGCT,0.317
AGCTAATG,-0.188
ACACGACG,0.092
CACCCAGG,-0.163
ATCCTTGG,-0.0502
ATACCTAG,-0.094
GCTGTCCA,-0.0418
GGAGGATA,-0.219
AGGCTCTA,-0.0819
CATACGCG,0.227
GTAACAAC,-0.163
CCCCTTAA,-0.252

# Sample 7 — method: RNAcompete; form: RNA; matrix: in vitro; tested at: 20 nM; notes: 7-mer, probes averaged, single round; reference: mean of 7-mers; direction: higher = stronger binding
# Target: PABPC1L2, full length, GST fusion (mouse, UniProt A0ABA7IW68)
# Construct (chain): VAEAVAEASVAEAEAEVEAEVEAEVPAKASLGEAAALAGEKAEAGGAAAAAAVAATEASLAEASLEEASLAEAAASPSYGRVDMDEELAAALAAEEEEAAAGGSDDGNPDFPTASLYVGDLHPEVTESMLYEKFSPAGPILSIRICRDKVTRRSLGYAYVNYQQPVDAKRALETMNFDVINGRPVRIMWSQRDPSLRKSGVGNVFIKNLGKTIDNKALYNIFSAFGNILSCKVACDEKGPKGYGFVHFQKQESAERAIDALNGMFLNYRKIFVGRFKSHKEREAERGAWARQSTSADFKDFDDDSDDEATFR
Strand,7-mer Z-score
ACUCCCG,-0.251
UGCGAAA,0.669
ACCAGAC,0.216
AGCCUUG,-0.313
CAGCUAG,-0.119
UCAUUCC,-0.432
CACCAUC,-0.237
CCAUACU,-0.278
CUGCCAG,-0.307
UACGACU,-0.0989
UCGGCUA,-0.208

# Some of these lines once more (sample 3):
Strand,RBNS enrichment (R)
GCAGCCUGUCUAGUUUGUAGAUCCCCUUGGUUGCUGGAUAAAGGAUGAUAAUAAAGUGUCUUUCUCUAAACUUGCUUGUCUCCUCUGUUUUAGAAACAUGGGUGGGUAGC,0.392
UUGCAACUGAAAUAUGAUGGAUAUGCUUAAGUACAACUGAUGGCAUGAAAAAAAUCAAAUUUUUGAUUUAUUAUAAAUGAAUGUUGUCCCUGAACUUAGCUAAAUGGUGC,0.391
AUAGAUAGGCCCAGUGUCUUGGCAUUCUUGUAGAAUCUUCAGGUGGGAAUGUGUGAUGCCUUUUCAGGCAAUAGGAAAGUGCAUGAGGAGAGUUUUGAAUGUGCAUAUGC,19.2
CCUCUCCACCCCCCACAUCGGUCCUCUCAAAUACCCAAUGGGAUUCCAGCUUGAAGGAUUGCAUCCUGCAGGGAAUGAGCACACCUGCCAAGGACACGUGCGCCUGCCUU,1.63
GUGUUCCACGAAGGAGGCUCUUCUCAGUCUCUGGGCUCUCCUUUAGAGUUAAGGUCUUAAAAUGUAUUUUGUCCUAAAUAAACUGCGUUUGGUAAACCUUGGCUGGCAAG,0.32
CAGGGCAAAUGUGAAUUUUCUUUUGAUUUGGGAGAUUGUUCACAGGAAGUAGUCCUCCCCUCUCAUGUCCUCCUAUUGAUUGUUUACAAUAUUUGUACAUCUAUGCAAAA,0.54
UGUGCGUGCCAGCGAAGGCUGCUGUGGGCGUGUGUGUCAAGUGGGCCACGCGUGCAGGGUGUGUGUCCACGAGCGACGAUCGUGGUGGCCCCAGCGGCCUGGGCGUUGGC,1.13
UGUCUUACAGGAGUUUGCAGAGAAACCUUCCUUGGAGGGAAAGAAAUAUCAGGGAUUUUUGUUGAAUAUUUCAAAUUCAGCUUUAAGUGUAAGACUCAGCAGUGUUCAUG,0.441
CUGAGGCCAGAUGAUGCUAAAGCAGCUUGUGAGCCAAAUGAUCUGGGGUCUCCCCCAACAUUGUUGCUCUUUUAAACAAAUUGAAUUCUUUUUUCAAGGCUUAAAUUUUU,0.727
CUUGUAUCCUUAAUCCUCAGUAACAGAAUUAGUCACACAGGGGGGAACUGCCAGCAGGGUUGCUUAGGAAAGGAAAUGGACCUUCUCUUCUCUUCUCUUCUUUGAGACAG,0.442
